{"data": "Measured values pooled from the literature", "B1": "CRYAA G98R (Homo sapiens, UniProt P02489); sequence looked up; chain MDVTIQHPWFKRTLGPFYPSRLFDQFFGEGLFEYDLLPFLSSTISPYYRQSLFRTVLDSGISEVRSDRDKFVIFLDVKHFSPEDLTVKVQDDFVEIHRKHNERQDDHGYISREFHRRYRLPSNVDQSALSCSLSADGMLTFCGPKIQTGLDATHAERAIPVSREEKPTSAPSS", "B2": "Runx2 (Mus musculus, UniProt Q08775); sequence looked up; chain MLHSPHKQPQNHKCGANFLQEDCKKALAFKWLISAGHYQPPRPTESVSALTTVHAGIFKAASSIYNRGHKFYLEKKGGTMASNSLFSAVTPCQQSFFWDPSTSRRFSPPSSSLQPGKMSDVSPVVAAQQQQQQQQQQQQQQQQQQQQQQQQQQQQQEAAAAAAAAAAAAAAAAAAVPRLRPPHDNRTMVEIIADHPAELVRTDSPNFLCSVLPSHWRCNKTLPVAFKVVALGEVPDGTVVTVMAGNDENYSAELRNASAVMKNQVARFNDLRFVGRSGRGKSFTLTITVFTNPPQVATYHRAIKVTVDGPREPRRHRQKLDDSKPSLFSDRLSDLGRIPHPSMRVGVPPQNPRPSLNSAPSPFNPQGQSQITDPRQAQSSPPWSYDQSYPSYLSQMTSPSIHSTTPLSSTRGTGLPAITDVPRRISDDDTATSDFCLWPSSLSKKSQAGASELGPFSDPRQFPSISSLTESRFSNPRMHYPATFTYTPPVTSGMSLGMSATTHYHTYLPPPYPGSSQSQSGPFQTSSTPYLYYGTSSASYQFPMVPGGDRSPSRMVPPCTTTSNGSTLLNPNLPNQNDGVDADGSHSSSPTVLNSSGRMDESVWRPY", "B3": "ITGAV/ITGB6 ectodomain, soluble, clasped; chain 1 FNLDVDSPAEYSGPEGSYFGFAVDFFVPSASSRMFLLVGAPKANTTQPGIVEGGQVLKCDWSSTRRCQPIEFDATGNRDYAKDDPLEFKSHQWFGASVRSKQDKILACAPLYHWRTEMKQEREPVGTCFLQDGTKTVEYAPCRSQDIDADGQGFCQGGFSIDFTKADRVLLGGPGSFYWQGQLISDQVAEIVSKYDPNVYSIKYNNQLATRTAQAIFDDSYLGYSVAVGDFNGDGIDDFVSGVPRAARTLGMVYIYDGKNMSSLYNFTGEQMAAYFGFSVAATDINGDDYADVFIGAPLFMDRGSDGKLQEVGQVSVSLQRASGDFQTTKLNGFEVFARFGSAIAPLGDLDQDGFNDIAIAAPYGGEDKKGIVYIFNGRSTGLNAVPSQILEGQWAARSMPPSFGYSMKGATDIDKNGYPDLIVGAFGVDRAILYRARPVITVNAGLEVYPSILNQDNKTCSLPGTALKVSCFNVRFCLKADGKGVLPRKLNFQVELLLDKLKQKGAIRRALFLYSRSPSHSKNMTISRGGLMQCEELIAYLRDESEFRDKLTPITIFMEYRLDYRTAADTTGLQPILNQFTPANISRQAHILLDCGEDNVCKPKLEVSVDSDQKKIYIGDDNPLTLIVKAQNQGEGAYEAELIVSIPLQADFIGVVRNNEALARLSCAFKTENQTRQVVCDLGNPMKAGTQLLAGLRFSVHQQSEMDTSVKFDLQIQSSNLFDKVSPVVSHKVDLAVLAAVEIRGVSSPDHVFLPIPNWEHKENPETEEDVGPVVQHIYELRNNGPSSFSKAMLHLQWPYKYNNNTLLYILHYDIDGPMNCTSDMEINPLRIKISSLQTTEKNDTVAGQGERDHLITKRDLALSEGDIHTLGCGVAQCLKIVCQVGRLDRGKSAILYVKSLLWTETFMNKENQNHSYSLKSSASFNVIEFPYKNLPIEDITNSTLVTTNVTWGIQPAPMPV; chain 2 GCALGGAETCEDCLLIGPQCAWCAQENFTHPSGVGERCDTPANLLAKGCQLNFIENPVSQVEILKNKPLSVGRQKNSSDIVQIAPQSLILKLRPGGAQTLQVHVRQTEDYPVDLYYLMDLSASMDDDLNTIKELGSRLSKEMSKLTSNFRLGFGSFVEKPVSPFVKTTPEEIANPCSSIPYFCLPTFGFKHILPLTNDAERFNEIVKNQKISANIDTPEGGFDAIMQAAVCKEKIGWRNDSLHLLVFVSDADSHFGMDSKLAGIVIPNDGLCHLDSKNEYSMSTVLEYPTIGQLIDKLVQNNVLLIFAVTQEQVHLYENYAKLIPGATVGLLQKDSGNILQLIISAYEELRSEVELEVLGDTEGLNLSFTAICNNGTLFQHQKKCSHMKVGDTASFSVTVNIPHCERRSRHIIIKPVGLGDALELLVSPECNCDCQKEVEVNSSKCHHGNGSFQCGVCACHPGHMGPRCECGEDMLSTDSCKEAPDHPSCSGRGDCYCGQCICHLSPYGNIYGPYCQCDNFSCVRHKGLLCGGNGDCDCGECVCRSGWTGEYCNCTTSTDSCVSEDGVLCSGRGDCVCGKCVCTNPGASGPTCERCPTCGDPCNSKRSCIECHLSAAGQAREECVDKCKLAGATISEEEDFSKDGSVSCSLQGENECLITFLITTDNEGKTIIHSINEKDCPKPPNIP", "B4": "lat-1 32-136 (Caenorhabditis elegans, UniProt G5EDW2); chain TTDESGTISHTICDGEAAELSCPAGKVISIVLGNYGRFSVAVCLPDNDIVPSNINCQNHKTKSILEKKCNGDSMCYFTVDKKTFTEDPCPNTPKYLEVKYNCVVP", "B5": "TIMP2 27-153 (Homo sapiens, UniProt P16035); sequence looked up; chain CSCSPVHPQQAFCNADVVIRAKAVSEKEVDSGNDIYGNPIKRIQYEIKQIKMFKGPEKDIEFIYTAPSSAVCGVSLDVGGKKEYLIAGKAEGDGKMHITLCDFIVPWDTLSTTQKKSLNHRYQMGCE", "note": "Compare with care: the assays were run in different laboratories. ± gives the spread as reported.", "sequence of UniProt Q05541 (whole entry, looked up)": "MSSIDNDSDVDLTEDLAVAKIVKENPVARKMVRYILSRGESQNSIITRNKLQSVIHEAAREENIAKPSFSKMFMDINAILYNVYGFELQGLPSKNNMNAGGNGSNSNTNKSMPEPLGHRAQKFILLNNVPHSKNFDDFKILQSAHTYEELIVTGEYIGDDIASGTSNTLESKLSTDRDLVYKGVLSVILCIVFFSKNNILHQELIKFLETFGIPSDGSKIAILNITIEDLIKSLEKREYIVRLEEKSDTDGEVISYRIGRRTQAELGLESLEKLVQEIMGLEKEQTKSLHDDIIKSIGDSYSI", "sequence of UniProt Q8VI67 (whole entry, looked up)": "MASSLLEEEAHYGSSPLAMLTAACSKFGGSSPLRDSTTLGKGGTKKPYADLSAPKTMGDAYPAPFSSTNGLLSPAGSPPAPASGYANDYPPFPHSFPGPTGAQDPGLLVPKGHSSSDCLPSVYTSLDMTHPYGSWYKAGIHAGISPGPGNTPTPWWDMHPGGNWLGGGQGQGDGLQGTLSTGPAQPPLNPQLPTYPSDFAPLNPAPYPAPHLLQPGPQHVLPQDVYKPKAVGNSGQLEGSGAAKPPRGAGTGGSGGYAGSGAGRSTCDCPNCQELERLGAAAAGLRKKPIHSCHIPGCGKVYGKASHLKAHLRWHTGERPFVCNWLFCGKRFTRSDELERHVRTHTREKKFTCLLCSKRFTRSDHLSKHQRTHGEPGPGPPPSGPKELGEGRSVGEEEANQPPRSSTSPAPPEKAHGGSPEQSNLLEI", "sequence of UniProt P54791 (whole entry, looked up)": "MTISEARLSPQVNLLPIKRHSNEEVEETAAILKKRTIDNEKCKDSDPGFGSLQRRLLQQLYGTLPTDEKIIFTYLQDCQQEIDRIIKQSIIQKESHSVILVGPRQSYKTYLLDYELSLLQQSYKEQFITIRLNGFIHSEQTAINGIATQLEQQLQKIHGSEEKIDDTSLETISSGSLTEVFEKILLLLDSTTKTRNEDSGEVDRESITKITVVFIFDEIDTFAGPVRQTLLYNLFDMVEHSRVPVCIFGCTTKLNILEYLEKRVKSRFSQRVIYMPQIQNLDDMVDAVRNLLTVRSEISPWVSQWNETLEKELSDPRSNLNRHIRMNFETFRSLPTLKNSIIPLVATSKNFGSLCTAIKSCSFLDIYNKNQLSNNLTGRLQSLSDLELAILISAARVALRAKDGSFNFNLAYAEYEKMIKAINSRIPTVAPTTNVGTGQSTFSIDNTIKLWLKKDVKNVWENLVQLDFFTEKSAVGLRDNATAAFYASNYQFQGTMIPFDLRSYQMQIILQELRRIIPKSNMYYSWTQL", "sequence of UniProt P08237 (whole entry, looked up)": "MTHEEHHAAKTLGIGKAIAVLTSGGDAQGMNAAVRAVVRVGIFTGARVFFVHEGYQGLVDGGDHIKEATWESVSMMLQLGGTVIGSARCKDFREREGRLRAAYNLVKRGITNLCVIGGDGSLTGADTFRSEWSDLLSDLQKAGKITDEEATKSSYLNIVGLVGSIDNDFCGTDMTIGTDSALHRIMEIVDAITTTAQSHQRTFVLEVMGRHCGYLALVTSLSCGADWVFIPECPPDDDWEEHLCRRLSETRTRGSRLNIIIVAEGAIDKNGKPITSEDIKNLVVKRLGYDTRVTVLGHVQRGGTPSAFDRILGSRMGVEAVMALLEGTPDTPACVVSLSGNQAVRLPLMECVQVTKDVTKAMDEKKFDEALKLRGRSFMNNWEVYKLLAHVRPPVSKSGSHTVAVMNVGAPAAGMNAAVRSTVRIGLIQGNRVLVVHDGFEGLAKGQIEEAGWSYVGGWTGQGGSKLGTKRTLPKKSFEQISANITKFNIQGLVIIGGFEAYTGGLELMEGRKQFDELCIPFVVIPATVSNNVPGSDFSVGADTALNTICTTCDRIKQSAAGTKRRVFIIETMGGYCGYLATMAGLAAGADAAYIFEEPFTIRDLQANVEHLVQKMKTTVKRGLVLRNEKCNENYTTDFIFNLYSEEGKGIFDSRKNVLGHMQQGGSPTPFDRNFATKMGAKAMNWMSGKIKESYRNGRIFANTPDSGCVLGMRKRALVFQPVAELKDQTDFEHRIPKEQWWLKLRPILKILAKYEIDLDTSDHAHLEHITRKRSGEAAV", "sequence of UniProt Q01813 (whole entry, looked up)": "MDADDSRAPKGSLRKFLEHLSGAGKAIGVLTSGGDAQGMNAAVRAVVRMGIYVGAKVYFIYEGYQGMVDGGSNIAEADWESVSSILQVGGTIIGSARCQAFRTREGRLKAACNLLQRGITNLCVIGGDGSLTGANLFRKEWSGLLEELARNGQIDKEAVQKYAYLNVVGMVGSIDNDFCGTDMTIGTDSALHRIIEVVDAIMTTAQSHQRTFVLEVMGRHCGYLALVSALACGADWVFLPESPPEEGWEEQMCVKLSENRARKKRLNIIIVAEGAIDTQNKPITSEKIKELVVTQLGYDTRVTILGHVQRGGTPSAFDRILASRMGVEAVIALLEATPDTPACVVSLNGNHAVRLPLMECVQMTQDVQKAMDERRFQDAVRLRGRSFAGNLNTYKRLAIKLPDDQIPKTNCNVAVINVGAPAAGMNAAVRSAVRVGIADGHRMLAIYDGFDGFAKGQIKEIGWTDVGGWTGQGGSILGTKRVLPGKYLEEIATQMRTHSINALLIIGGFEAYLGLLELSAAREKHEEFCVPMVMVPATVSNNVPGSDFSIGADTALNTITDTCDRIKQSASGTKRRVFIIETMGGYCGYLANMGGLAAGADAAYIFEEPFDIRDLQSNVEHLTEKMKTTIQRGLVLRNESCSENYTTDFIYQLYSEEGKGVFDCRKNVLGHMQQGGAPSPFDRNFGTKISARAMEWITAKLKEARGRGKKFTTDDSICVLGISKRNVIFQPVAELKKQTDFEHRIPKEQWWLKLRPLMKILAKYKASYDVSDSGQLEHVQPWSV", "sequence of UniProt P32833 (whole entry, looked up)": "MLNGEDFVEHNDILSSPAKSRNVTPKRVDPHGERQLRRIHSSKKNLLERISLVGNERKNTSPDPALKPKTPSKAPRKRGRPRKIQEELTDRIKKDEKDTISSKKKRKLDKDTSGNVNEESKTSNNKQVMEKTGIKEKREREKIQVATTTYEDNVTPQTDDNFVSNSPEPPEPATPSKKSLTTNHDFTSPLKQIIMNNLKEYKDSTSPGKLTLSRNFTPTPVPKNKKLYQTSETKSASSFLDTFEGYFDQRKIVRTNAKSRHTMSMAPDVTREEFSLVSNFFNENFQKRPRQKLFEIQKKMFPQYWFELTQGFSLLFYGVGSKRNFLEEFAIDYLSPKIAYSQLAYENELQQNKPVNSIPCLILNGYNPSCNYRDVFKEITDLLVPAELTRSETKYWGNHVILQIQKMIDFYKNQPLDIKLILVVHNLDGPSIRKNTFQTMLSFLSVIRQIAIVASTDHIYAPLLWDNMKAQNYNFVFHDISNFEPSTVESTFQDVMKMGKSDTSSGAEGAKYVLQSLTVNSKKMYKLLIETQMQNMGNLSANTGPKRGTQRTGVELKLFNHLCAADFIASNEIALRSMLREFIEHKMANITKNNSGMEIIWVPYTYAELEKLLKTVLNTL", "sequence of UniProt P00330 (whole entry, looked up)": "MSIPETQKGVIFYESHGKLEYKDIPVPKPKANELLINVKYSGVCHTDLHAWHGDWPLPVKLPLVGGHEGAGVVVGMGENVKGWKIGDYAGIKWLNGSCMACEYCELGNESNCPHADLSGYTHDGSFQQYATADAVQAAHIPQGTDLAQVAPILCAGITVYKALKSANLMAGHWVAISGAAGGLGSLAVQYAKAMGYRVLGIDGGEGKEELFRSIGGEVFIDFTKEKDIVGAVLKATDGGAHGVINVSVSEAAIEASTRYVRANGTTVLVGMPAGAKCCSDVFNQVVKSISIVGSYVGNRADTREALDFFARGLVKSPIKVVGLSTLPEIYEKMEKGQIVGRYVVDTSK", "sequence of UniProt Q03718 (whole entry, looked up)": "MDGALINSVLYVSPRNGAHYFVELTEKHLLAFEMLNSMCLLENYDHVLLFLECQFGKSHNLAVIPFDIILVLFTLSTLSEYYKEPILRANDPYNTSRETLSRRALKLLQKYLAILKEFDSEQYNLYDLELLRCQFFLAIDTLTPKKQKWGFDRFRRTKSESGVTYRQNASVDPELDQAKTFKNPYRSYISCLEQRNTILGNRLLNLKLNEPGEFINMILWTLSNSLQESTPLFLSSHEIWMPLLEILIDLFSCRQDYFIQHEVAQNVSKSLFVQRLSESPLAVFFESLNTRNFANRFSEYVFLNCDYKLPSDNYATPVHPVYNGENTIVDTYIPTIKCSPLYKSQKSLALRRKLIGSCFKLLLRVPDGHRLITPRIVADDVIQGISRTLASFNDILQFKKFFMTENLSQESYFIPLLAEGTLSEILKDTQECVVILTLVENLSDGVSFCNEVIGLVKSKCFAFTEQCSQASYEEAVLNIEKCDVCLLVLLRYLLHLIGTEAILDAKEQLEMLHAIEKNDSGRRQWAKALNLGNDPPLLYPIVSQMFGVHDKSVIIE"}
{"Molecule": "ORC2 (Saccharomyces cerevisiae, UniProt P32833)", "target or system": "ORC4 (Saccharomyces cerevisiae, UniProt P54791)", "assay": "cross-linking MS", "conditions": "hits only", "measurement": "interaction screen", "value": "cross-linked"}
{"Molecule": "SERPINA1 (Homo sapiens, UniProt P01009)", "target or system": "DRC11 (Homo sapiens, UniProt Q86XH1)", "assay": "cross-linking MS", "conditions": "added: DSSO", "measurement": "cross-linked residues", "value": "K359 to K645"}
{"Molecule": "B1 (CRYAA G98R)", "target or system": "ADH1 (Saccharomyces cerevisiae, UniProt P00330)", "assay": "EDTA-induced ADH aggregation, absorbance, inhibitor", "conditions": "250 µg", "measurement": "ADH aggregation suppression IC50", "value": "38 µg"}
{"Molecule": "FGA (Homo sapiens, UniProt P02671)", "target or system": "GTF3C6 (Homo sapiens, UniProt Q969F1)", "assay": "cross-linking MS", "conditions": "added: DSSO", "measurement": "cross-linked residues", "value": "K476 to K94"}
{"Molecule": "B2 (Runx2)", "target or system": "Sp7 (Mus musculus, UniProt Q8VI67)", "assay": "luciferase reporter", "system": "epithelial cells", "how to read": "relative to: alone, higher = greater activity", "measurement": "FGF3 promoter activity", "value": "130 fold"}
{"Molecule": "ALLQWVAQV", "target or system": "Jurkat T cells expressing 1G4 TCR", "assay": "NFAT-eGFP reporter, fluorescence microscopy", "system": "peptide", "conditions": "concentration not given, HLA-A*02:01 NY-ESO system", "measurement": "reporter activation", "value": "9.95%"}
{"Molecule": "B3", "target or system": "TGFB3 fragment, aminocaproic acid, FITC label", "assay": "fluorescence polarisation", "conditions": "added: CaCl2 1 mM", "measurement": "EC50", "value": "3.1 nM"}
{"Molecule": "B4 (lat-1 32-136)", "target or system": "tol-1 extracellular region (Caenorhabditis elegans)", "assay": "SPR", "measurement": "kon", "value": "1.55e+06 M⁻¹ s⁻¹"}
{"Molecule": "GGWVEKETYY", "target or system": "human MAGI1-3/6 PDZ construct (MBP fusion)", "assay": "automated holdup", "system": "peptide, crude extract", "conditions": "concentration not given, uncorrected, unit not given", "how to read": "relative to: biotin control resin, higher = stronger binding", "measurement": "binding intensity", "value": -0.0375}
{"Molecule": "PFKM (Homo sapiens, UniProt P08237)", "target or system": "PFKP (Homo sapiens, UniProt Q01813)", "assay": "cross-linking MS", "system": "cells", "conditions": "added: iqPIR", "measurement": "cross-linked residues", "value": "K727 to K736"}
{"Molecule": "GSGAGKETRV", "target or system": "human MAGI1-2/6 PDZ construct (MBP fusion)", "assay": "automated holdup", "system": "peptide, crude extract", "conditions": "concentration not given, corrected by standard peak, unit not given", "how to read": "relative to: biotin control resin, higher = stronger binding", "measurement": "binding intensity", "value": 0.435}
{"Molecule": "ALB (Homo sapiens, UniProt P02768)", "target or system": "KLHDC1 (Homo sapiens, UniProt Q8N7A1)", "assay": "cross-linking MS", "conditions": "added: DSSO", "measurement": "cross-linked residues", "value": "K223 to K376"}
{"Molecule": "NSE5 (Saccharomyces cerevisiae, UniProt Q03718)", "target or system": "NSE3 (Saccharomyces cerevisiae, UniProt Q05541)", "assay": "cross-linking MS", "conditions": "hits only", "measurement": "interaction screen", "value": "cross-linked"}
{"Molecule": "FGB (Homo sapiens, UniProt P02675)", "target or system": "CAPN12 (Homo sapiens, UniProt Q6ZSI9)", "assay": "cross-linking MS", "conditions": "added: DSSO", "measurement": "cross-linked residues", "value": "K348 to K268"}
{"Molecule": "B5 (TIMP2 27-153)", "target or system": "MMP14 112-292 (Homo sapiens, UniProt P50281)", "assay": "enzyme activity, inhibitor, fluorogenic peptide cleavage assay", "measurement": "Ki", "value": "2.27 ± 0.34 nM"}
